# Published values pooled from the literature.
# Parts stem from different laboratories: compare values within a part only.

# Sample 1
# Target: Interferon regulatory factor 3, full length, phosphomimetic (IRF3, Homo sapiens, UniProt Q14653, residues 1-427, S386D/S396D/S398D/S402D/T404D/S405D)
# UniProt Q14653, sequence (whole entry, unmodified, looked up): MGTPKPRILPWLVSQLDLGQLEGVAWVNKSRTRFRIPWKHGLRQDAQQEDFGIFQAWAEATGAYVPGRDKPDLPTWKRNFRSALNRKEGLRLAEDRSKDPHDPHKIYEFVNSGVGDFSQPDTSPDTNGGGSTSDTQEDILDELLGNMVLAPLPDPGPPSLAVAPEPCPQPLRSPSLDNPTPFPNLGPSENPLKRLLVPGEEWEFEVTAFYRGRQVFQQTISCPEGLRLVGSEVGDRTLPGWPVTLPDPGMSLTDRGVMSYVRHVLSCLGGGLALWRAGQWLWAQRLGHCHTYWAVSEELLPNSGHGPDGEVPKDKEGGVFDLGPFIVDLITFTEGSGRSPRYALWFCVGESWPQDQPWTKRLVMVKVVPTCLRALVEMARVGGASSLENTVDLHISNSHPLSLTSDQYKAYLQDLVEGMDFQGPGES
# Technique: protein-binding microarray
# Form: double-stranded DNA, one strand shown
# Medium: in vitro
# Concentration: 2540 nM top
# Notes: 60-bp whole probe
# Together with: salmon DNA 0.4 mg/ml
# Reference: random background probes
# Reading: higher = stronger binding
# Constant ends, left off below: GCCTAGCAC … GTCTTGATTCGCTTGACGCTGCTG
Oligonucleotide,fitted relative affinity [z-score]
GACGGCCTCGGTCTCGGGACGTGCTAG,-0.854
GTGACTCTGAACCTTGGGCTGTGCTAG,-0.804
GACGGTATCGACACTGGGGAAGTGCTA,0.529
GACGGTACCCTTTTCCTGACGTGCTAG,3.9
GACGATATCAAACTGGAGACGTGCTAG,0.122
TTAGAACTGGGGATTGGATTAGTGCTA,-0.698
GACGATATCGGGTATCGACACGTGCTA,0.342
TTAGGACTTCTTCTCCTTTAGTGCTAG,0.574
GACGGACTGCTGCTGCTGACGTGCTAG,-0.961

# Sample 2
# Target: Sal-like protein 4, full length isoform A (SALL4, Homo sapiens, UniProt Q9UJQ4, residues 1-1053)
# UniProt Q9UJQ4, sequence (whole entry, looked up): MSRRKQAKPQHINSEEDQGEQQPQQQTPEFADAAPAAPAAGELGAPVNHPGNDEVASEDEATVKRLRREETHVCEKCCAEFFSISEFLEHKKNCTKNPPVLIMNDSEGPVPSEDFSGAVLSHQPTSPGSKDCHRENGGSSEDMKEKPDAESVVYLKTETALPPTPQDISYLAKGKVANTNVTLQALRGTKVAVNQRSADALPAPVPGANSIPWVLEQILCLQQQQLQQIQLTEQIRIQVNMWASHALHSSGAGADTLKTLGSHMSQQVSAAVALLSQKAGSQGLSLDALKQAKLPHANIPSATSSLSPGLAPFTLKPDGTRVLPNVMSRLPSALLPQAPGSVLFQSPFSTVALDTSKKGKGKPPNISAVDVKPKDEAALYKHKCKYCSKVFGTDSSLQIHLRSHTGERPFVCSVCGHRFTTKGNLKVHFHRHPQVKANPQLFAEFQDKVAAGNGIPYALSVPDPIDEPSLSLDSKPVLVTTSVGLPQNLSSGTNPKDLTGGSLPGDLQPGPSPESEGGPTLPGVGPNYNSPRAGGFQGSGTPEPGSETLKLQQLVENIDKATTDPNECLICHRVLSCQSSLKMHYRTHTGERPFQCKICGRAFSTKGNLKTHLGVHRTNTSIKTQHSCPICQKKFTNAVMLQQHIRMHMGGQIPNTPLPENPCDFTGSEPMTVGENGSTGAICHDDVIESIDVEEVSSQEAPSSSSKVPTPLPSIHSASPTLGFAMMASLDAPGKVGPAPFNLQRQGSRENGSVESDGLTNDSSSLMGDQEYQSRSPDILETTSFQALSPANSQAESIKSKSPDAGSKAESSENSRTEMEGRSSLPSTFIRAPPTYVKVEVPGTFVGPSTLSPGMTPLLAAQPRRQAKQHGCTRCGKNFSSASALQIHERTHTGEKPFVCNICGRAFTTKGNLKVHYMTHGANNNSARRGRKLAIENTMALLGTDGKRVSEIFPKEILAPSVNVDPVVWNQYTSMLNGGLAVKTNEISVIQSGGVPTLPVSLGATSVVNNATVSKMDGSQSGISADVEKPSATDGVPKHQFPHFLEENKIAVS
# Technique: universal PBM
# Form: double-stranded DNA, one strand shown
# Medium: in vitro
# Concentration: 600 nM
# Notes: 8-mer, flanks averaged, mean of replicates
# Reading: higher = stronger binding
Oligonucleotide,E-score
GATAGCAA,0.182
CAACTACC,-0.0163
CAGAACAC,-0.0947
CAGTCACA,0.0351
CACTCGTC,-0.0804
ATTTACGC,0.155
GAGCCCAA,-0.197
GATAGGGC,-0.215

# Sample 3
# Target: Histone acetyltransferase KAT6A, winged helix 2, GST fusion (KAT6A, Homo sapiens, UniProt Q92794, residues 85-181)
# Technique: protein binding microarray
# Form: double-stranded DNA, one strand shown
# Medium: in vitro
# Concentration: not given
# Notes: 8-mer, flanks averaged, mean of 2 arrays, mostly near background
# Reference: not given
# Reading: higher = stronger binding
# Target sequence (chain): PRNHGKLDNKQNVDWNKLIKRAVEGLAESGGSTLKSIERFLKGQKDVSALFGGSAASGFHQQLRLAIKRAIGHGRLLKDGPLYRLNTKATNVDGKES
Oligonucleotide,E-score
GGGAGACA,0.155
GCTGGGGA,-0.0725
CAAGTCAA,-0.23
CATTCCAG,0.0184
CCGGTGTA,0.0612
CTTTCAGA,0.0722
CAAACTGC,0.0394
CATTCGCC,0.00959
GAGTTAAA,-0.0203

# Sample 4
# Molecule: PhoQ, residues 284 288 289 292 302 303 ASTSDA
# Technique: Sort-seq
# Refers to: YFP reporter
# Medium: E. coli
# Notes: PhoQ-PhoP variant library
# Together with: 10 µM Mg2+
# Reference: high Mg2+ state
# Reading: higher = stronger signaling
target,fold induction
"PhoP, residues 12 14 15 18 19 NYFRM (Escherichia coli, UniProt P23836)",10.6
"PhoP, residues 12 14 15 18 19 QYFSL (Escherichia coli, UniProt P23836)",16.9
"PhoP, residues 12 14 15 18 19 TQALL (Escherichia coli, UniProt P23836)",2.54

# A few entries again (sample 3):
Oligonucleotide,E-score
GCTGGGGA,-0.0725
CAAGTCAA,-0.23
CATTCCAG,0.0184
CCGGTGTA,0.0612
